Assay results of several laboratories.
Each line is one published result; not all experiments were run side by side. Several values in a cell are separate wells, animals, samples, runs or records. Numbers after ± are the reported error.

`CCCC[C@H]1C(=O)O[C@H](C)[C@H](NC(=O)c2cccc(NC=O)c2O)C(=O)O[C@@H](C)[C@@H]1OC(=O)CC(C)C` has an IC50 of 0.035 µM (Wickerhamomyces anomalus; O2 uptake, inhibitor; mitochondria; together with: malate and pyruvate 15 mM).
The IC50 of `CN1CCCN2CCN(CCCN(Cc3ccccc3)CC2)CC1` is reported as > 20 µM (Leishmania donovani; parasite growth, resazurin; 72 h, promastigote).
`CC(=O)Nc1ccc2ccn(-c3cc(NC4CCN(C)CC4)n4ncc(C#N)c4n3)c2c1` gave an IC50 of 3.16 µM (murine hepatitis virus; viral replication, nanoluciferase reporter; DBT; 10 h).
`O=C(O)C(Cl)Cl` has an IC50 of 2690 ± 1.58 µM (Leishmania infantum; infected macrophages; U-937 macrophages; 48 h).
`N=C(N)c1ccc(OCCCCCOc2ccc(C(=N)N)cc2)cc1` gave an IC50 of ≤ 0.002 µM (human papillomavirus 16; pseudovirus infection, inhibitor; 293FT; pseudovirus).
`N=C(N)N[C@@H]1Cc2ccccc2[C@H]1NC(=O)C(=O)Nc1ccc(Cl)c(F)c1` has an IC50 of 22.9 µM (HIV-1 YU2; viral infection; Cf2Th-CD4/CCR5).
With `C/C=C(C)/C=C/C=C/[C@H](OC)[C@@H](C)[C@@H](OC)[C@@H](C)CCc1oc2c(O)c(OC)cc(OC)c2c(=O)c1C` the IC50 was 0.094 µM (Plasmodium yoelii; oxygen consumption; 17XL).
`CC[C@H](C)[C@H](NC(=O)[C@H](CC(C)C)NC(=O)CNC(=O)[C@@H]1CCCN1C(=O)[C@H](CC(C)C)NC(=O)[C@H](C)NC(=O)[C@H](CCCCN)NC(=O)CNC(=O)[C@H](CC(C)C)NC(=O)[C@H](CCSC)NC(=O)[C@H](CCCCN)NC(=O)[C@H](C)NC(=O)[C@H](C)NC(=O)[C@H](C)NC(=O)CNC(=O)[C@H](Cc1c[nH]c2ccccc12)NC(=O)[C@@H](N)Cc1ccccc1)C(=O)N[C@@H](CO)C(=O)N[C@@H](CCSC)C(=O)N[C@@H](Cc1ccccc1)C(=O)N[C@@H](CCC(N)=O)C(=O)N[C@@H](CCCCN)C(=O)N[C@@H](CC(N)=O)C(=O)O` gave an IC50 of < 6 µM and 5.1 µM (Haemonchus contortus; larval development; Kirby isolate; 6 days, 26 °C).
`CCC(=O)Nc1cc(Nc2cc(NC3CC3)n3ncc(C#N)c3n2)ccc1N1CCNCC1` has an IC50 of 2 µM (murine hepatitis virus; viral replication, nanoluciferase reporter; DBT; 10 h).
`meglumine antimoniate` has an IC50 of 24.2 ± 2.6 µM (Leishmania infantum; intracellular amastigotes).
The IC50 of `CC(=O)Nc1ccc2ccn(-c3cc(NCc4cnn(C)c4)n4ncc(C#N)c4n3)c2c1` is reported as 3.16 µM (murine hepatitis virus; viral replication, nanoluciferase reporter; DBT; 10 h).
`O=Cc1cn(Cc2ccc(F)cc2)c2ccc([N+](=O)[O-])cc12` has an IC50 of > 84 µM (Trypanosoma congolense; trypomastigotes, IL3000).
For `N#CSCCOc1cccc(Oc2ccccc2Cl)c1`, the IC50 was 2.1 µM (Toxoplasma gondii; growth; tachyzoites).
For `C/C=C1/CN2[C@H]3C[C@@H]1[C@@H](CO)[C@@H]2Cc1c3n(C)c2ccccc12`, the IC50 was 138 µM (Leishmania mexicana; parasite growth, flow cytometry; promastigote).
For `CC(=O)Nc1ccc2ccn(-c3cc(N[C@H](C)C#N)n4ncc(C#N)c4n3)c2c1`, the IC50 was 3.16 µM (murine hepatitis virus; viral replication, nanoluciferase reporter; DBT; 10 h).
For `Cc1ccc(Cn2cc(C=O)c3cc([N+](=O)[O-])ccc32)cc1`, the IC50 was > 85 µM (Trypanosoma equiperdum; trypomastigotes, IVM-t1).
`OCC1CC(n2cnc3c(SCc4ccccc4Cl)ncnc32)C(O)C1O` (stereo not shown) has an IC50 of 20 ± 2.3 µM (Toxoplasma gondii; parasite growth, radiolabelled uracil incorporation; RH wild type, tissue culture).
The IC50 of `CC(C)c1cc2c(c(O)c1O)[C@@]1(C)CCCC(C)(C)C1=C(O)C2=O` is reported as 4.3 µg/mL (Leishmania amazonensis; parasite growth; mouse Peritoneal macrophage; 72 h, intracellular, amastigote).
`O=Cc1cn(Cc2cccc(Cl)c2)c2ccc([N+](=O)[O-])cc12` gave an IC50 of > 79 µM (Trypanosoma brucei rhodesiense; trypomastigotes, IL1501).
`CO/C(=C/C(N)=O)[C@H](C)[C@H](/C=C/c1csc(-c2csc([C@@H](C)/C=C/C=C/C(C)C)n2)n1)OC` has an IC50 of 0.047 µM (Wickerhamomyces anomalus; O2 uptake, inhibitor; mitochondria; together with: duroquinol 1 mM).
`OCC1CC(n2cnc3c(SCc4ccc(F)cc4)ncnc32)C(O)C1O` (stereo not shown) has an IC50 of 23.2 ± 1.3 µM (Toxoplasma gondii; parasite growth, radiolabelled uracil incorporation; RH wild type, tissue culture).
With `C/C(=C\Cc1c(O)c(Cl)c(C)c(C=O)c1O)CC/C=C(\C)[C@@H]1CC(=O)C(C)(C)O1` the IC50 was 68.5 µM (Wickerhamomyces anomalus; O2 uptake, inhibitor; mitochondria; together with: NADH 1 mM).
`C[C@@H]1N[C@H](CCCCCCCCCCC2=C[C@@H](CCCCCCCCCC[C@@H]3CC[C@@H](O)[C@H](C)N3)[C@@H]3CCCN3C2)CC[C@H]1O` gave an IC50 of 1 µg/mL (Leishmania donovani; parasite growth, resazurin; 72 h, amastigote).
For `Cc1cccc(CSc2ncnc3c2ncn3C2CC(CO)C(O)C2O)c1` (stereo not shown), the IC50 was 23.8 ± 1.1 µM (Toxoplasma gondii; parasite growth, radiolabelled uracil incorporation; RH wild type, tissue culture).
The IC50 of `Nc1nc(N)nc(Nc2ccc([As]3SCC(CO)S3)cc2)n1` (stereo not shown) is reported as 0.003 µg/mL (Trypanosoma brucei rhodesiense; STIB900 bloodstream form; 72 h).
`O=Cc1cn(Cc2ccccc2)c2ccc([N+](=O)[O-])cc12` gave an IC50 of > 10 µM (Leishmania major; parasite growth, resazurin; THP-1; 72 h, intracellular, amastigote).
The IC50 of `CC(=O)Nc1ccc2ccn(-c3cc(NCC4CCOCC4)n4ncc(C#N)c4n3)c2c1` is reported as 1 µM (murine hepatitis virus; viral replication, nanoluciferase reporter; DBT; 10 h).
The IC50 of `Cn1c2c(c(=O)c3ccccc31)CC(O)C(C)(C)O2` (stereo not shown) is reported as 83 ± 43.3 µM (human rhinovirus 2; cytopathic effect; HeLa; 72 h).
